Measured values from different studies.
Each line is one published result; not all experiments were run side by side.
Target: Cholinesterase (BCHE, Homo sapiens, UniProt P06276)
Sequence of UniProt P06276 (whole entry, looked up): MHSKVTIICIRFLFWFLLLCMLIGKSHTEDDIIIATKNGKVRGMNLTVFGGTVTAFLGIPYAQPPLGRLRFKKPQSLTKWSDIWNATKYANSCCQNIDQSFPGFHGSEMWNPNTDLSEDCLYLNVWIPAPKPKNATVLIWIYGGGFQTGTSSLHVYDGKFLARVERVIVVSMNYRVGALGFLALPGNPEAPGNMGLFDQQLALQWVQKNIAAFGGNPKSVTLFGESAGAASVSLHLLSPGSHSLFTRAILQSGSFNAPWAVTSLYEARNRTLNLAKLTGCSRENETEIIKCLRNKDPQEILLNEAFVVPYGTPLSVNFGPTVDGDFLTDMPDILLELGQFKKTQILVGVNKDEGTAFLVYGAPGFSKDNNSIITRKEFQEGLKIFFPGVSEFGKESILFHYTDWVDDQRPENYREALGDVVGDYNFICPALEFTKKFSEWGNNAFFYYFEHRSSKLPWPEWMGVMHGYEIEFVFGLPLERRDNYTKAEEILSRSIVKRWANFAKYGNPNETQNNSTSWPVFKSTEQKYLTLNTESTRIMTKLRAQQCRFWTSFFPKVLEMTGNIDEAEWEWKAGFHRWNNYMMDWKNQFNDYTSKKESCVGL
Read-out: enzyme activity
Action: inhibitor

CCS(=O)(=O)N1CCN(CC(=O)Nc2ccc(/C=C/C(=O)c3ccc(OC)c(OC)c3)cc2)CC1
inhibition (Ellman; 100 µM): 24.8%

O=C(O)CCCC(=O)O
inhibition (Ellman; 125 µg/mL): 50.1%

COc1ccc2[nH]cc(CCNS(=O)(=O)CCc3cn(-c4cnc5ccccc5c4)nn3)c2c1
inhibition (20 µM): 35.4%

O=c1c(O)c(-c2cc(O)ccc2O)oc2cc(O)cc(O)c12
inhibition (Ellman; 500 µg/mL): 71.1%

O=c1c(O)c(-c2ccc(O)c(O)c2)oc2c(O[C@@H]3O[C@H](CO)[C@@H](O)[C@H](O)[C@H]3O)c(O)cc(O)c12
inhibition (Ellman DTNB; 80000 µM): < 0%

S=C(NCc1ccccn1)NCc1ccccn1
inhibition (Ellman; 125 µg/mL): 65.7%

O=C(O)/C=C/c1cc(O)cc(O)c1
inhibition (Ellman; 62.5 µg/mL): 48%

O=C(O)/C=C/c1ccc(O)cc1
inhibition (Ellman; 1000 µg/mL): 83.2%

COc1ccc2[nH]cc(CCNS(=O)(=O)CCc3cn(-c4cc(C)cc(C)c4)nn3)c2c1
inhibition (20 µM): 25.9%

Repeated from above:
COc1ccc2[nH]cc(CCNS(=O)(=O)CCc3cn(-c4cc(C)cc(C)c4)nn3)c2c1
inhibition (20 µM): 25.9%
